Measurements gathered from unrelated publications.
Numbered parts are unrelated; each lists some results of a single study. Changes are numbered by the printed parent chain.

Series 1
Target: Histone acetyltransferase KAT6A, winged helix 1, GST fusion (KAT6A, Homo sapiens, UniProt Q92794, residues 1-85)
Method: protein binding microarray
Form: double-stranded DNA, one strand shown
Matrix: in vitro
Tested at: not given
Setting: 8-mer, flanks averaged, mean of 2 arrays, mostly near background
Baseline: not given
Reading: higher = stronger binding
Construct (chain): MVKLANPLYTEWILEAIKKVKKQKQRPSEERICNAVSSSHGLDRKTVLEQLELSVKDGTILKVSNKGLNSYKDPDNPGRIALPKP
| Oligonucleotide | E-score |
| --- | --- |
| CAAGGTCG | -0.0805 |
| ACGGTTGA | -0.0419 |
| CCAAAAGA | -0.195 |
| ACACTGGC | 0.0128 |
| AATCGTCC | 0.185 |
| GAGCTTAA | -0.209 |
| AGACCAGC | -0.0772 |
| ATGACATA | -0.248 |
| GGAGTTAA | -0.103 |
| ACTCACGG | 0.304 |
| AAGCCTAA | -0.137 |
| AACGCAGT | 0.0265 |
| CTCTACGC | -0.0927 |
| AAGGTATG | -0.107 |
| TAGTGCGA | -0.0468 |
| CAGGTCTA | -0.277 |
| AATTTCCC | -0.136 |
| CAGCTGCG | 0.243 |
| TACGTCTA | -0.146 |
| CGTTCGTC | 0.151 |
| GTTAACTA | 0.161 |
| AGCTGCGG | 0.166 |
| ATTAAGGA | -0.0161 |
| CCTCCCAG | -0.214 |
| CTTTGCCC | -0.0877 |

Series 2
Target: PABPC1L2, full length, GST fusion (mouse, UniProt A0ABA7IW68)
Method: RNAcompete
Form: RNA
Matrix: in vitro
Tested at: 20 nM
Setting: 7-mer, probes averaged, single round
Baseline: mean of 7-mers
Reading: higher = stronger binding
Target sequence (chain): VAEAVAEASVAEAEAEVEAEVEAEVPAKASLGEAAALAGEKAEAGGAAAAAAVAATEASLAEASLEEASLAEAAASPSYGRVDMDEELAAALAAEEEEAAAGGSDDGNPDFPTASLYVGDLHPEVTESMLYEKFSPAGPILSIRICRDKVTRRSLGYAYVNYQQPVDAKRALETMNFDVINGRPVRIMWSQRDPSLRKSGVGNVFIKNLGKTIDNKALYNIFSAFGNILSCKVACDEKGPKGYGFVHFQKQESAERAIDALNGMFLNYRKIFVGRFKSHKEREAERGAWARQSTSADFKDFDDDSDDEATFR
| Oligonucleotide | 7-mer Z-score |
| --- | --- |
| GUGAGCU | -0.226 |
| GAGGUUG | -0.00289 |
| UAAUGCU | -0.191 |
| UUUGCCG | -0.44 |
| GUGUGCA | 0.0551 |
| GAAACUA | 0.514 |
| GAAAUUU | 0.354 |
| GCCAAUG | -0.128 |
| GAGGCUU | -0.126 |
| GCUCAGA | 0.0859 |
| UUUUAGC | 0.000733 |
| GGCUAUU | -0.0718 |
| UGAGGGA | 0.338 |
| CAGAACU | -0.0591 |
| AAAAUCG | 4.73 |
| UUAUAUA | -0.188 |
| UUCGGGC | -0.278 |

Series 3
Target: RNA binding protein fox-1 homolog 2, RRM domain, GST-SBP tag (RBFOX2, Homo sapiens, UniProt O43251-10, residues 100-194)
Method: RNA Bind-n-Seq
Form: RNA
Matrix: in vitro
Tested at: 365 nM
Setting: natural RNA segment, single round, ends assumed
Baseline: no-protein control
Reading: higher = stronger binding
All sequences stand within: GGGAGUUCUACAGUCCGACGAUC … UGGAAUUCUCGGGUGCCAA
Construct (chain): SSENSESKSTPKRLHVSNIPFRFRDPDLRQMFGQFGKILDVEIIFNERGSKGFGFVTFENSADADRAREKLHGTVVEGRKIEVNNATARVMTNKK
| Oligonucleotide | RBNS enrichment (R) |
| --- | --- |
| CCCAAGGAACCUCCUGGGAGGGGGCCUGCAUUCUAUGUUGGUGGGAAUGGGACUGGGCUGACGCCCUGCAUUCAGCCUGUGCCUUUCCUGGGGUUUCUUUUCUGUUCUUU | 0.586 |
| ACCAUUGUGUAGGGGGCUGUGUCUGAUCUUGGUGUUCAAAACAGAACUGUAUUUUUGCCUUUAAAAUUAAAUAAUAUAACGUGAAUAAAUGACCCUAUCUUUGUAACUGC | 0.505 |
| UCCCAUGGUGUCCUGGCUAUAUGACCUAAAAACCAGCCUUUCCUCCACAAGGCUUUGAGACACAUCCAGAGAUGAGGUGGUAUCAGACCUGUCCUUCCACACCAAAGACA | 0.385 |
| AUUGGUUUGAGGUUUUCUGACACUAAUUAAAAGAAAAAUUAGAUCAGGGUGUGGUAGCAAAUGCCUAUAAUCCCAGCAUUUAGGAGGCAGGGAUAGGAAUCUCAGGUUCA | 0.5 |
| AUGGUGGAGUUGGCAUCUUGUAACUCUCCUUUCUCCUUUCUUCCCCUUUCUCUGCCCGCCUUUCCCAUCCUGCUGUAGACUUCUUGAUUGUCAGUCUGUGUCACAUCCAG | 1.52 |
| GGAAAUGAAGCUUAAUCAUGGUCAGGUUUGAGAUCUUUUGCAGUGAAAUAAUUUUAUUUAAUAUAAAUGAUCACAUGUCCUCAAUCAUGAAUGAGGUAGGGAGCCUCUCU | 0.28 |
| GGUGCCUGGGACAUUCCUGGAGGGAUCAUGCCUGGCCGCUACAACCAGGAGGUGGGACAGACCAUCCCCGUCUUCGCCUUCCUCGGAGCCAUGGUGGCCCUGGCCUUCUU | 0.273 |
| ACUUAUGUGAGGGGUUUUCCCAUUUUUUGUCUUGUUGGUGCUCAAAAAGUUUUGGAUUUUGGAGCAUUUCGGAUUUUGGAUUUUUGGAUUAGGGUUGCUCAACCCAUAUU | 1.47 |
| UUUAUUUUGCUGCUUUGAUUUUGCUUCUGUCUGCCCCUCACAUGUGCAGUGGCAGGCGUGUUUGAGCGAGCCUCCUUCCUUAUUCAUAGGGAUUCAGUGUUGACUGUUCC | 0.384 |
| ACAUGUAAGUUUGAAGUAUUACUGUUUUCUCAGCAUGAAUUAAAAAUAUUCUGUAACUCAGCCAGGCAAGGUAGCUCAUGCCUGUGAUCCCAGCAUUUGGGAAACAGAGG | 11.3 |
| UUAUGAACCGUUUCCUCUGAGGGCCACCCUUGAUCUCUAGCAGAACAGCAAGCAGAACACCGUGCAUGCUGGCCACAGCAGUGGAGCCAAGUCUCUGCUGGUUACGGAGC | 2.16 |
| UUUCUCUUUGGAAAGACUCAGGCUGUGGUUUGUUGAUGGCCAGGUUUUCCUCAGGCUCCAACAACUGUGCUUAUACCAAGCAGAUCCUCAUCCUCCAUAUAAUCAUCUUU | 0.252 |

Series 4
Target: RING finger protein unkempt homolog, zinc fingers 1-6, GST-SBP tag (UNK, Homo sapiens, UniProt Q9C0B0, residues 30-357)
Chain of UniProt Q9C0B0 (30-357, looked up): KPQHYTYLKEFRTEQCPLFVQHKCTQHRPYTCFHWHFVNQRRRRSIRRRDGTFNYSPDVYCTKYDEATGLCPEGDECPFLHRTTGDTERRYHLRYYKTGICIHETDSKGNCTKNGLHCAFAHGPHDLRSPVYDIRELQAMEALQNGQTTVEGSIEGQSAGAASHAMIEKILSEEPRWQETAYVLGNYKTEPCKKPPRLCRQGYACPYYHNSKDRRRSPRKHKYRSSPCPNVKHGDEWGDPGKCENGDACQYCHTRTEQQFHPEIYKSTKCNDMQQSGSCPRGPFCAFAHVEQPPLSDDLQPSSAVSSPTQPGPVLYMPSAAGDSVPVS
Method: RNA Bind-n-Seq
Form: RNA
Matrix: in vitro
Tested at: not given
Setting: RNA with constant flanks, human and mouse sites, ends assumed
Baseline: input RNA pool
Reading: higher = stronger binding
All sequences stand within: GGGAGUUCUACAGUCCGACGAUC … CAACAGAGGAUUGAGCAUCA
| Oligonucleotide | bound/input enrichment [ratio] |
| --- | --- |
| UGGACUCAUGUUGGGCCUACUCCUGCAAUAACAAUUAAGGAAUCAGUUGCCAACCAUUUGUAGUUCACAAAUUAAAACUGGGUUUCCAGGCCUGGUGUGGUGGCUCACGCCUGUAGCCCC | 1.79 |
| CUGUGCAUUUCUGAAAAACAGGAGAAUGAUGUCAUUAAUGCUAUCCUUAAGCAAUACACGGAAGAAAAAGAGUUUGUAGAGAAGCACUUUAAUGACUUAAACAUGAAAGCCUCAGAACAA | 0.126 |
| GUUGAGCCCAGUCCCUCCCCAAUCAAGCCUGGAGACAUCAAAAGAGGAAUUCCUAAUUACGAAUUUAAGCUUGGUAAGAUCACUUUCAUCAGAAAUUCACGUCCAUUGGUCAAAAAGGUU | 0.346 |
| CCUGCUACAGUUUUUAUGCUCUUUAGUGGCCAAGGAAGUUUGCUCCAGCCUUUUAUAUAUUAUAGAUUUCUUACUCUUCGAUAUUCCUCUAGAAGAAAUCCAUAUUGUCGGAACUUGUUU | 5.01 |
| CCUCUUCUGGCCUGCCUCCUUGGCAACGACAUAAUCCCAGAGGGCAUGUUUGAAAGCUUUAGGUACAAAUGCUUAUCGUCCUACACCUCUGUAAAAGAGAACUUUGACAAAAAAGGUAAC | 0.382 |
| GGACAGAGGCAUUCUACUGGAGAUACCAAAGUUCCCUUCUGUCUUCAGUCCUGUGUAAAACCUUUGAAAUAUGCCAUUGCUGUUAAUGAUCUUGGAACUGAAUAUGUGCAUCGAUAUGUU | 0.138 |
| AACGUAUUUGUAAAAUUAACACUAAAGAUGCAUGUGAGUCAUUUCACCAAAAGGAACUCUAUUAAUAAGCUAGACUGCUUUUGGUUUCCAGUAAUUGGUUUAAAAACACAGUAAAUUUAC | 0.287 |
| GUGAGCUUGCGGGGGAUUGGCAGUCCCAGCACAGAUGCCAGUGCCAGUGCCGUCCACGGCAAUUUCGCCUUCGAGGGCAUUGGAGAUGAGGAUCUGUAAUCUCAGCUGCCUGGAUGUCUG | 0.104 |
| GAUGAACUUCAUGAUCAUGGAGUUUCAAGCCUGAGUGUGAAGAUUAGAGUAAUGCCUUCUAGCUUUUUCCUGCUGUUGCGGUUUUUCUUGAGAAUUGAUGGGGUGCUUAUCAGAAUGAAU | 1.11 |
| CGUGCUUUUGAAGACGAUGAUAUCACGCAUGUUGAAGGAAGUGUAGAUCCCAUCCGAGACAUAGAGAUAAUUCACGAGGAGCUCCAGCUGAAGGACGAGGAGAUGAUUGGGCCCAUUCUA | 0.711 |
| ACUGAUAUCAAGAAUAUAAAUGCAAAACACAAGAACAAUAAAGUGAAUGUAGUAUUGCAAAAUUUCAUGUACACCAUGUUAAGAGAUAGCAAUGCAACCGCAGCCAAGAUGUCUUUAGAU | 0.217 |

Series 5
Target: CCNF, cyclin fold, Cln2 fusion (human)
Method: yeast growth competition, sequencing
Matrix: yeast
Setting: strong parent motif
Baseline: not given
Reading: higher = stronger binding
Starting sequence: MICAL3 docking peptide (human); LQLRRQLSFSEDS
| Variant | normalised enrichment score |
| --- | --- |
| F9Y | 2.13 |
| L7I | 2.02 |
| L7C | -0.114 |
| S8P | 1.29 |
| R4T | 0.593 |
| R5S | -0.0128 |
| L7D | -0.635 |
| R5Y | 0.0243 |
| R5P | -0.0672 |
| L7Y | -0.0981 |
| S8F | 8.28 |
| Q6M | 5.23 |
| L7H | 0.0903 |
| F9K | 0.403 |
| S10K | 4.07 |
| D12N | 5.66 |
| Q6A | 4.76 |
| Q6I | 2.43 |
| E11C | 6.14 |
| R5T | 0.357 |
| L3V | 7.48 |
| L7F | -0.434 |
| L3Y | 4.76 |
| E11S | 5.38 |
| S8D | 6.22 |

Other studies, line by line
| Substance | target | test | test system | conditions | scale | endpoint | result |
| --- | --- | --- | --- | --- | --- | --- | --- |
| PhoQ, residues 284 288 289 292 302 303 TNSAEL | PhoP, residues 12 14 15 18 19 LHSVW (Escherichia coli, UniProt P23836) | Sort-seq, item: YFP reporter | E. coli | PhoQ-PhoP variant library, with: 10 µM Mg2+ | baseline: high Mg2+ state, higher = stronger signaling | fold induction | 12.3 |

Some of these lines once more (series 2):
| Oligonucleotide | 7-mer Z-score |
| --- | --- |
| GCCAAUG | -0.128 |
| UAAUGCU | -0.191 |
| GUGUGCA | 0.0551 |
| GCUCAGA | 0.0859 |
| GAAAUUU | 0.354 |
| UUCGGGC | -0.278 |
| UUUUAGC | 0.000733 |
